Experimental data of several laboratories.
Every numbered part comes from another study and shows a few of its results, in no order.

Sample 1
Target: Sal-like protein 4, full length isoform A (SALL4, Homo sapiens, UniProt Q9UJQ4, residues 1-1053)
UniProt Q9UJQ4, sequence (whole entry, looked up): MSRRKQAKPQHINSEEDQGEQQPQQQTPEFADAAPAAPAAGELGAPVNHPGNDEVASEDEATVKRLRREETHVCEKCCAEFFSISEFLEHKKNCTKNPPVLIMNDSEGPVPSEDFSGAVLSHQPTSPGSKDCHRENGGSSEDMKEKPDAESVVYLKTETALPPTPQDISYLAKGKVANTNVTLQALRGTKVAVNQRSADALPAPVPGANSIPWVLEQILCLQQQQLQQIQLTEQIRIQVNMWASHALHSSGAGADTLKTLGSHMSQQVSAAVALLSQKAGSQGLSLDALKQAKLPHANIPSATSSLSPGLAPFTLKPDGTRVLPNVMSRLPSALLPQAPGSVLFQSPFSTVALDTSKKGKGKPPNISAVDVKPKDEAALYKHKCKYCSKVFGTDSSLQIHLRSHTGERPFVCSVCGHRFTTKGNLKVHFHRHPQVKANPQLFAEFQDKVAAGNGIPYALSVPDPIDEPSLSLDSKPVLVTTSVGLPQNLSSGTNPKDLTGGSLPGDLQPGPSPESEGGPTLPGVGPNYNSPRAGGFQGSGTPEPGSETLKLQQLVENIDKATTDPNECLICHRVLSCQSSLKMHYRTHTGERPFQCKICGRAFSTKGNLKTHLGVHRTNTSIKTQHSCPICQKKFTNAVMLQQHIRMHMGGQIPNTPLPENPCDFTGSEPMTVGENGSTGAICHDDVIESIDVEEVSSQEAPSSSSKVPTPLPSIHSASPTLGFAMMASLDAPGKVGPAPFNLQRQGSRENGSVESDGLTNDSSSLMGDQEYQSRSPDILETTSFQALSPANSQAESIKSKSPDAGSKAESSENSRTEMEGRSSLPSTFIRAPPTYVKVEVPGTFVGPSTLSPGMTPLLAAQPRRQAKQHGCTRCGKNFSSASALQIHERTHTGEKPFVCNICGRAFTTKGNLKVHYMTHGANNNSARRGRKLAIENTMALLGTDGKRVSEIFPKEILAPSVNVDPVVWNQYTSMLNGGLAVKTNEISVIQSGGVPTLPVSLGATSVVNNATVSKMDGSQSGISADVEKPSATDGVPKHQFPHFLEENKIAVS
Technique: universal PBM
Molecule type: double-stranded DNA, one strand shown
Medium: in vitro
Concentration: 600 nM
Setting: 8-mer, flanks averaged, mean of replicates
Reading: higher = stronger binding
With `TCCTTGCA` the E-score was -0.269.
`AACTCCCT` has an E-score of -0.0967.
The E-score of `ACTATCAT` is reported as 0.298.
`CAATTTCA` gave an E-score of 0.214.
The E-score of `ACCCCGCT` is reported as -0.274.
For `CCTCGAAA`, the E-score was 0.0365.
`ACCGGTGC` has an E-score of -0.316.
`AACGCCCC` gave an E-score of -0.226.
With `ATCGACAC` the E-score was -0.00485.

Sample 2
Target: RNA binding protein fox-1 homolog 2, RRM domain, GST-SBP tag (RBFOX2, Homo sapiens, UniProt O43251-10, residues 100-194)
Technique: RNA Bind-n-Seq
Molecule type: RNA
Medium: in vitro
Concentration: 365 nM
Setting: natural RNA segment, single round, ends assumed
Baseline: no-protein control
Reading: higher = stronger binding
Construct (chain): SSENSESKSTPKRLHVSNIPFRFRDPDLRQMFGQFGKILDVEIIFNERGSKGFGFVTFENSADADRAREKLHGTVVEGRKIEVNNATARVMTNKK
`GGGAGUUCUACAGUCCGACGAUCUCUGGCUUUGAAAGGGCCCGAGUGCUCCCAGUGUAGCUUCGUCACAUCGUCACGAGCCCCUGUGGUCAUGGGCGACCUCACACCUCCCUCCCUGAGUUCUGCUCUGACAUUGGAAUUCUCGGGUGCCAA` — result for “RBNS enrichment (R)”: 0.626.
`GGGAGUUCUACAGUCCGACGAUCCCAUUUGGUUAGCAGACAGUGACAGCUGAGCAGGUCUGAGCACUACUGUGUCAUAGUGGACCCUGACUGCAGGAGUCAGGCCUCUCAGCCCAGGGCAGAUGCUGCCUUUAUGGAAUUCUCGGGUGCCAA` — result for “RBNS enrichment (R)”: 0.577.
`GGGAGUUCUACAGUCCGACGAUCGCUGGGAAUUUUCUGCCAUGCAGGCAAGACCAUCAGCACCGAGAACCCCAAACCUGUUUUGUACUUAGAGACUGGCUUUGGUCAGUAGUUCACUGUGGAGACAAUGACAGUGGAAUUCUCGGGUGCCAA` — result for “RBNS enrichment (R)”: 0.372.
For `GGGAGUUCUACAGUCCGACGAUCAGCGGGCCCUGGGGCGAGGCCAUCUCUGCCUGCCUCCCUAGCAGGCGCCAGCGGUGGAGGCUGAGUCGCAGGACACAUGCCGGCCAGUUAAUUCAUUCUCAGCCAAUGAAUGGAAUUCUCGGGUGCCAA`, “RBNS enrichment (R)” read 0.275.

Sample 3
Target: Interferon regulatory factor 7, full length, phosphomimetic (IRF7, Homo sapiens, UniProt Q92985, residues 1-503, S101K/S471D/S472D/S475D/S476D/S477D/S483D/S484D/S487D)
Technique: protein-binding microarray
Molecule type: double-stranded DNA, one strand shown
Medium: in vitro
Concentration: 250 nM
Setting: 60-bp whole probe
With: salmon DNA 0.4 mg/ml
Baseline: random background probes
Reading: higher = stronger binding
Target sequence (chain): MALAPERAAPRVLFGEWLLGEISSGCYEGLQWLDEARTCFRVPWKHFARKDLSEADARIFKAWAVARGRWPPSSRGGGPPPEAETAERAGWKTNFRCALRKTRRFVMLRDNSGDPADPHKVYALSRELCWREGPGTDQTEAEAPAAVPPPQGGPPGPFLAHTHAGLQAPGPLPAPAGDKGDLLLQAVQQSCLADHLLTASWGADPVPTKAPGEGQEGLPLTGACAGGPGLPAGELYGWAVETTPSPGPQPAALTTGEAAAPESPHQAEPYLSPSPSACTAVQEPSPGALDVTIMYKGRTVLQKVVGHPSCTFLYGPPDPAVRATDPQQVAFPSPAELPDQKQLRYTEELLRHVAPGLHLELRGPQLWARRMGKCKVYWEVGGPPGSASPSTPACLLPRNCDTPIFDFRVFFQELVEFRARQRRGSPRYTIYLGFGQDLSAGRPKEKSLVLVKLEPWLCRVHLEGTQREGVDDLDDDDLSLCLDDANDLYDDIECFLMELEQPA
`GCCTAGCACGGGAACTTAAACCTCTAAAGGTGCTAGGTCTTGATTCGCTTGACGCTGCTG` gave a log fluorescence of 0.197 z-score.
With `GCCTAGCACTTAGATCTCAGTCTCGAGTAGTGCTAGGTCTTGATTCGCTTGACGCTGCTG` the log fluorescence was 0.38 z-score.
With `GCCTAGCACTCAAGTTTCTATTTTCTACTGTGCTAGGTCTTGATTCGCTTGACGCTGCTG` the log fluorescence was 7.76 z-score.
With `GCCTAGCACTCAACTCTCTACATGTGACTGTGCTAGGTCTTGATTCGCTTGACGCTGCTG` the log fluorescence was 0.0464 z-score.

Other studies, line by line
With `PhoQ, residues 284 288 289 292 302 303 ASASEQ` the fold induction was 4.97 (PhoP, residues 12 14 15 18 19 SFCSL (Escherichia coli, UniProt P23836); Sort-seq, refers to: YFP reporter; E. coli; PhoQ-PhoP variant library, with: 10 µM Mg2+; baseline: high Mg2+ state, higher = stronger signaling).

For quick reference, copied from above (sample 1):
`CAATTTCA` gave an E-score of 0.214.
